{"data": "Results of several laboratories", "kasA": "3-oxoacyl-[acyl-carrier-protein] synthase 1 (kasA, Mycobacterium tuberculosis, UniProt P9WQD9)", "note": "Protocols differ between the studies behind these lines. Numbers after ± are the reported error."}
{"SMILES": "Oc1ccc2c3c1O[C@H]1[C@@H](O)CC[C@@]4(O)[C@@H](C2)N(CC2CCC2)CC[C@]314", "tested on": "G-protein coupled receptor 15 (Homo sapiens, UniProt P49685)", "test": "β-arrestin recruitment, TANGO luminescence, item: GPR15", "conditions": "concentration not given", "how to read": "relative to: basal luminescence", "endpoint": "log2 fold change", "value": -0.061}
{"SMILES": "Cc1cc(S(=O)(=O)Nc2ccc3cnn(C(C)C)c3c2)c(C)s1", "tested on": "kasA", "test": "thermal stabilization, nanoDSF", "conditions": "100 µM", "endpoint": "ΔTm", "value": "0.13 °C"}
{"SMILES": "CC(NC(C)(C)C)C(=O)c1cccc(Cl)c1 (stereo not shown)", "tested on": "Voltage-dependent P/Q-type calcium channel subunit alpha-1A (Homo sapiens, UniProt O00555)", "test": "ion current, antagonist, automated patch clamp", "endpoint": "IC30", "value": "10.5 µM"}
{"SMILES": "CN1CCN(c2cc(-c3ccncc3)c(-c3ccc4ccccc4c3)nn2)CC1", "tested on": "P2Y purinoceptor 1 (P2RY1, Homo sapiens, UniProt P47900)", "test": "agonist, FLIPR calcium", "conditions": "12.5 µM", "endpoint": "activation", "value": "-4.6%"}
{"SMILES": "CCN1CCN(Cc2ccc(NC(=O)c3ccc(C)c(/C=C/c4cnc5[nH]ccc5c4OC)c3)cc2C(F)(F)F)CC1", "tested on": "RPS6KA3 (Homo sapiens, UniProt P51812)", "test system": "A-375", "conditions": "concentration not given", "endpoint": "inhibition", "value": "-27.9%"}
{"SMILES": "COC(=O)Nc1nc2cc(C(=O)c3ccc(F)cc3)ccc2[nH]1", "tested on": "kasA", "test": "thermal stabilization, nanoDSF", "conditions": "100 µM", "endpoint": "ΔTm", "value": "-0.03 °C"}
{"SMILES": "O=C(c1ccc(Cl)cc1)N1CCN2C(=O)N(OC(=O)N3CCOc4ccccc43)C(=O)C2C1 (stereo not shown)", "tested on": "Acyl-coenzyme A thioesterase 2, mitochondrial (ACOT2, Homo sapiens, UniProt P49753)", "test": "MS-based ABPP", "test system": "SW-620 conditioned medium", "conditions": "10 µM, 1 h, 37 °C", "how to read": "relative to: compound over DMSO, lower = more inhibition", "endpoint": "median protein ratio", "value": 1.02}
{"SMILES": "O=C(Nc1cccnn1)N1CCC(=Cc2cccc(Oc3ccc(C(F)(F)F)cn3)c2)CC1", "tested on": "PTGER3 (Homo sapiens, UniProt P43115)", "test": "radioligand binding, inhibitor", "conditions": "10 µM, human, added: [3H]prostaglandin E2", "endpoint": "inhibition", "value": "24%"}
{"SMILES": "COCCn1ncc2ccc(NS(=O)(=O)c3ccc4c(c3)CCC4)cc21", "tested on": "kasA", "test": "thermal stabilization, nanoDSF", "conditions": "100 µM", "endpoint": "ΔTm", "value": "0.15 °C"}
{"SMILES": "C[C@@]1(O)CC[C@@]2(C)[C@@H](CC[C@@H]3[C@@H]2CC[C@]2(C)[C@@H]([N+](=O)[O-])CC[C@@H]32)C1", "test": "[3H]flunitrazepam binding, positive modulator", "test system": "rat cerebral cortex homogenate", "how to read": "relative to: allopregnanolone Emax", "endpoint": "Emax", "value": "99 ± 7%"}
{"SMILES": "C[C@H]1CN(c2n[nH]c3nc(N[C@H]4CC[C@H](NS(=O)(=O)CCC(F)(F)F)CC4)ncc23)CCO1", "tested on": "Splicing factor 3B subunit 3 (Homo sapiens, UniProt Q15393)", "test": "Kinobeads competition, item: SF3B3", "conditions": "0.8 µM, unit not given", "how to read": "relative to: vehicle", "endpoint": "remaining binding", "value": 1.12}
{"SMILES": "CC[C@H](C)[C@H](NC(=O)CNC(=O)[C@@H](N)CCCCN)C(=O)N[C@@H](CC(C)C)C(=O)N[C@@H](CCCCN)C(=O)N[C@@H](CCCNC(=N)N)C(=O)N[C@@H](CCC(=O)O)C(=O)N[C@@H](CCCCN)C(=O)N[C@@H](CCCNC(=N)N)C(=O)N[C@@H](CC(C)C)C(=O)N[C@@H](CCCNC(=N)N)C(=O)N[C@@H](CCCNC(=N)N)C(=O)N[C@@H](CCCCN)C(=O)N[C@@H](CC(N)=O)C(=O)N[C@H](C(=O)N[C@@H](Cc1c[nH]cn1)C(=O)N[C@@H](Cc1c[nH]c2ccccc12)C(=O)N1CCC[C@H]1C(=O)N[C@@H](CCC(=O)O)C(=O)N[C@@H](CCC(=O)O)C(=O)NCC(=O)N[C@@H](CCCCN)C(=O)N[C@@H](CC(C)C)C(=O)N[C@@H](CCCNC(=N)N)C(=O)N[C@@H](CCC(=O)O)C(=O)N[C@@H](Cc1ccccc1)C(=O)N[C@@H](Cc1ccccc1)C(=O)N[C@@H](Cc1ccccc1)C(=O)N[C@@H](Cc1ccccc1)C(=O)N[C@@H](CCC(=O)O)C(=O)N[C@@H](CC(C)C)C(=O)N[C@@H](CC(=O)O)C(=O)N[C@@H](CCC(=O)O)C(=O)N[C@@H](C)C(=O)N[C@@H](CCC(=O)O)C(=O)N[C@@H](CCCNC(=N)N)C(=O)N[C@H](C(=O)N[C@@H](CC(N)=O)C(=O)N[C@H](C(=O)O)C(C)C)C(C)C)C(C)C", "tested on": "HeLa and HEK-293T cells", "test": "phosphatase bead binding, competitive inhibitor, PIB pulldown iBAQ LC-MS/MS, item: PPP6R1", "conditions": "concentration not given", "how to read": "relative to: untreated control", "endpoint": "log2 fold change", "value": -0.23}
{"SMILES": "CCN(CC)CCNC(=O)c1ccc(NC(C)=O)cc1", "tested on": "kasA", "test": "thermal stabilization, nanoDSF", "conditions": "100 µM", "endpoint": "ΔTm", "value": "-0.07 °C"}
{"SMILES": "COc1ccc(N2C(=O)N(c3c(C)cccc3Cl)Cc3cnc(Nc4ccc(C5CCN(C)CC5)cc4OC)nc32)nc1", "tested on": "SRPK3 (Homo sapiens, UniProt Q9UPE1)", "test": "kinase activity, inhibitor", "conditions": "0.5 µM, MSSK1", "endpoint": "inhibition", "value": "-0.375%"}
{"SMILES": "CC[C@H](C)[C@H](NC(=O)CNC(=O)[C@@H](N)CCCCN)C(=O)N[C@@H](CC(C)C)C(=O)N[C@@H](CCCCN)C(=O)N[C@@H](CCCNC(=N)N)C(=O)N[C@@H](CCC(=O)O)C(=O)N[C@@H](CCCCN)C(=O)N[C@@H](CCCNC(=N)N)C(=O)N[C@@H](CC(C)C)C(=O)N[C@@H](CCCNC(=N)N)C(=O)N[C@@H](CCCNC(=N)N)C(=O)N[C@@H](CCCCN)C(=O)N[C@@H](CC(N)=O)C(=O)N[C@H](C(=O)N[C@@H](Cc1c[nH]cn1)C(=O)N[C@@H](Cc1c[nH]c2ccccc12)C(=O)N1CCC[C@H]1C(=O)N[C@@H](CCC(=O)O)C(=O)N[C@@H](CCC(=O)O)C(=O)NCC(=O)N[C@@H](CCCCN)C(=O)N[C@@H](CC(C)C)C(=O)N[C@@H](CCCNC(=N)N)C(=O)N[C@@H](CCC(=O)O)C(=O)N[C@@H](Cc1ccc(O)cc1)C(=O)N[C@@H](Cc1ccccc1)C(=O)N[C@@H](Cc1ccc(O)cc1)C(=O)N[C@@H](Cc1ccccc1)C(=O)N[C@@H](CCC(=O)O)C(=O)N[C@@H](CC(C)C)C(=O)N[C@@H](CC(=O)O)C(=O)N[C@@H](CCC(=O)O)C(=O)N[C@@H](C)C(=O)N[C@@H](CCC(=O)O)C(=O)N[C@@H](CCCNC(=N)N)C(=O)N[C@H](C(=O)N[C@@H](CC(N)=O)C(=O)N[C@H](C(=O)O)C(C)C)C(C)C)C(C)C", "tested on": "HeLa and HEK-293T cells", "test": "phosphatase bead binding, competitive inhibitor, PIB pulldown iBAQ LC-MS/MS, item: STRN4", "conditions": "concentration not given", "how to read": "relative to: untreated control", "endpoint": "log2 fold change", "value": -0.24}
{"SMILES": "CCn1ncc2ccc(NS(=O)(=O)c3cccc(Cl)c3O)cc21", "tested on": "kasA", "test": "thermal stabilization, nanoDSF", "conditions": "100 µM", "endpoint": "ΔTm", "value": "0.07 °C"}
{"note": "For quick reference, copied from above:"}
{"SMILES": "O=C(c1ccc(Cl)cc1)N1CCN2C(=O)N(OC(=O)N3CCOc4ccccc43)C(=O)C2C1 (stereo not shown)", "tested on": "Acyl-coenzyme A thioesterase 2, mitochondrial (ACOT2, Homo sapiens, UniProt P49753)", "test": "MS-based ABPP", "test system": "SW-620 conditioned medium", "conditions": "10 µM, 1 h, 37 °C", "how to read": "relative to: compound over DMSO, lower = more inhibition", "endpoint": "median protein ratio", "value": 1.02}
{"SMILES": "C[C@@]1(O)CC[C@@]2(C)[C@@H](CC[C@@H]3[C@@H]2CC[C@]2(C)[C@@H]([N+](=O)[O-])CC[C@@H]32)C1", "test": "[3H]flunitrazepam binding, positive modulator", "test system": "rat cerebral cortex homogenate", "how to read": "relative to: allopregnanolone Emax", "endpoint": "Emax", "value": "99 ± 7%"}
